Measurements gathered from unrelated publications.
“And” joins repeats or separate records; there may be more than shown. Numbers after ± are the reported error.
RPA1 N-terminal domain: Replication protein A 70 kDa DNA-binding subunit, N-terminal domain (RPA1, Homo sapiens, UniProt P27694)
Lysophospholipase-like protein 1: Lysophospholipase-like protein 1 (Mus musculus, UniProt Q3UFF7)
APP Aβ1-40: Amyloid-beta precursor protein, Aβ1-40 (APP, Homo sapiens, UniProt P05067)
E3 ubiquitin-protein ligase NEDD4: E3 ubiquitin-protein ligase NEDD4 (Homo sapiens, UniProt P46934)

The chains behind the UniProt entries cited, without tags or fusion partners. Where a name states a change or a piece, a line headed by the entry shows the natural chain unless it says otherwise. Residues count along the entry.
UniProt Q3UFF7, whole entry: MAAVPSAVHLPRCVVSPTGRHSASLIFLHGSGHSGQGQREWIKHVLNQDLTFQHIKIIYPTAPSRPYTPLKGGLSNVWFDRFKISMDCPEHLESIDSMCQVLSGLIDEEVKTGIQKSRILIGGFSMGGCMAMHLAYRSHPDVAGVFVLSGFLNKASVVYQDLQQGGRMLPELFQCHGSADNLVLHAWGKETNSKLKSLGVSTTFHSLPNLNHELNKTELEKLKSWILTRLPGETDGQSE
UniProt P05067, whole entry, looked up: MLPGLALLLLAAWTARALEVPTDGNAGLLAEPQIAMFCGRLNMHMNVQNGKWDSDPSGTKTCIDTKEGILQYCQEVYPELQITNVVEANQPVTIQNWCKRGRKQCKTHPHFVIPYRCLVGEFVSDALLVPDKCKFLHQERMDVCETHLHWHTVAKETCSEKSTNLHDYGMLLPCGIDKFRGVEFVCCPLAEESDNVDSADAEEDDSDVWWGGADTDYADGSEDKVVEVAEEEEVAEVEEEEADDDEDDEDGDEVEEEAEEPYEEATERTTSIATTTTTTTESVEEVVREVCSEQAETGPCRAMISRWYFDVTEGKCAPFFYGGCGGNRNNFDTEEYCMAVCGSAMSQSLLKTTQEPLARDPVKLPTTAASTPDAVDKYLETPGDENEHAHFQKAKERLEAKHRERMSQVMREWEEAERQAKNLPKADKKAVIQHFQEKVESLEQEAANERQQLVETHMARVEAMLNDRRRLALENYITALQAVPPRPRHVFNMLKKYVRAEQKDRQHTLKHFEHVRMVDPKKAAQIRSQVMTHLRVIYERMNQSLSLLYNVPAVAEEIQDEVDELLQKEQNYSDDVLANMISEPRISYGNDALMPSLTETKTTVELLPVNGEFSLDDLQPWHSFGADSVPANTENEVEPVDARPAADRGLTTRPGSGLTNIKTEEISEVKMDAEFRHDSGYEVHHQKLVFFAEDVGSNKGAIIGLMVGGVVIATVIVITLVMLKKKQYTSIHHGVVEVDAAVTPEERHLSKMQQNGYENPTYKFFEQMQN
UniProt P05067, 672-713 limits assumed: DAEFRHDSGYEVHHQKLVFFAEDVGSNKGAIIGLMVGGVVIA
UniProt P46934, whole entry, looked up: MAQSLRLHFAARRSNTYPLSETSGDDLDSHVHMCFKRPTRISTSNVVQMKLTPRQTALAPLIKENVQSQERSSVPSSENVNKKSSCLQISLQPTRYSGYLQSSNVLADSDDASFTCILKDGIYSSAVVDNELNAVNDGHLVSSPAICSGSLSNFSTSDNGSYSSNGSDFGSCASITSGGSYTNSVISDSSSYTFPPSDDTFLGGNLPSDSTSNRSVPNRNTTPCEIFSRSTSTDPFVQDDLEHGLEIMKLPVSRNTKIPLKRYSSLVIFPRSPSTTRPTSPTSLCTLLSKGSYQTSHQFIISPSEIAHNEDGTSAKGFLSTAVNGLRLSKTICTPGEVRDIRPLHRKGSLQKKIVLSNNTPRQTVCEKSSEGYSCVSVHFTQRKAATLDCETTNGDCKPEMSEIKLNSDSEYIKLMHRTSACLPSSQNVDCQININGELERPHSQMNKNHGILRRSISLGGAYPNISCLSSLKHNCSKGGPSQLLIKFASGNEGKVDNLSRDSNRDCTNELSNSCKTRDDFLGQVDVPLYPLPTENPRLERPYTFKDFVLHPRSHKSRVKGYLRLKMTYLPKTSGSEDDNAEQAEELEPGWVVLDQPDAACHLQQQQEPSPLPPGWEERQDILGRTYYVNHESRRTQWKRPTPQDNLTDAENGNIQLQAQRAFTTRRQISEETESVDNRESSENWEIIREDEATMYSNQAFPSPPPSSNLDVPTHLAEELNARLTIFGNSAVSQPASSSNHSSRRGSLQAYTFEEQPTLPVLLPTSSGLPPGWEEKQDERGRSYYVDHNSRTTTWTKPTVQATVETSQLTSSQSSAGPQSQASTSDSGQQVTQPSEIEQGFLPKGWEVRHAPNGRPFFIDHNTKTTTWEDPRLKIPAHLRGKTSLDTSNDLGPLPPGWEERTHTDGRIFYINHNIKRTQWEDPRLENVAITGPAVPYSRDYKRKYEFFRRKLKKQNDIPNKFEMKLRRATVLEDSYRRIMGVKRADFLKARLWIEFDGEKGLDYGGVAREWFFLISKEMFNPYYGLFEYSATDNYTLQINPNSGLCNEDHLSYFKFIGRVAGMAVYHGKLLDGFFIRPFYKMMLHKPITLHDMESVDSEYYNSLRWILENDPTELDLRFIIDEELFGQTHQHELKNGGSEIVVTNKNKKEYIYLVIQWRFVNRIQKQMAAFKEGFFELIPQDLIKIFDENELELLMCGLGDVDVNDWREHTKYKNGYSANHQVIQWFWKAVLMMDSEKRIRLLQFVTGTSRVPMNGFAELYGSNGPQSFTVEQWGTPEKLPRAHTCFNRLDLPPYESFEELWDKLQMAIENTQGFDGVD
UniProt P46154, whole entry: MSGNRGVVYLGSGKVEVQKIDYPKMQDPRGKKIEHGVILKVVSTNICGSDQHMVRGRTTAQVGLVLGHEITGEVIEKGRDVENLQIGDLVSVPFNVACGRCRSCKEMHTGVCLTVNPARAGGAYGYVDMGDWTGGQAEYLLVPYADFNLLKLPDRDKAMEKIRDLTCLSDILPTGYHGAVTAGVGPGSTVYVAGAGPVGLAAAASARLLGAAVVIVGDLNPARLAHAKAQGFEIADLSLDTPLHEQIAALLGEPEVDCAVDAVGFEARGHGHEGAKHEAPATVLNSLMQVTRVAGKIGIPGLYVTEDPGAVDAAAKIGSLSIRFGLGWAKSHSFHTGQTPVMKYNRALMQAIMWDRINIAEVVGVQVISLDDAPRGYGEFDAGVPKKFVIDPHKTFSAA
UniProt P54753, 633-896 limits assumed: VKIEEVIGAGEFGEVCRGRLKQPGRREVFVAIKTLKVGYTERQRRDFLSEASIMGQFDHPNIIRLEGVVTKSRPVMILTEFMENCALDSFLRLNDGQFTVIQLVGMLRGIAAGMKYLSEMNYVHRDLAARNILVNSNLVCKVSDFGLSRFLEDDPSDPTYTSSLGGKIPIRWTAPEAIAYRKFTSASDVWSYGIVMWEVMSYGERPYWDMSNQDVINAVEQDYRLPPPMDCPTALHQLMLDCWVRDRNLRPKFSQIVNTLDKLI
UniProt Q99797, 36-713 limits assumed: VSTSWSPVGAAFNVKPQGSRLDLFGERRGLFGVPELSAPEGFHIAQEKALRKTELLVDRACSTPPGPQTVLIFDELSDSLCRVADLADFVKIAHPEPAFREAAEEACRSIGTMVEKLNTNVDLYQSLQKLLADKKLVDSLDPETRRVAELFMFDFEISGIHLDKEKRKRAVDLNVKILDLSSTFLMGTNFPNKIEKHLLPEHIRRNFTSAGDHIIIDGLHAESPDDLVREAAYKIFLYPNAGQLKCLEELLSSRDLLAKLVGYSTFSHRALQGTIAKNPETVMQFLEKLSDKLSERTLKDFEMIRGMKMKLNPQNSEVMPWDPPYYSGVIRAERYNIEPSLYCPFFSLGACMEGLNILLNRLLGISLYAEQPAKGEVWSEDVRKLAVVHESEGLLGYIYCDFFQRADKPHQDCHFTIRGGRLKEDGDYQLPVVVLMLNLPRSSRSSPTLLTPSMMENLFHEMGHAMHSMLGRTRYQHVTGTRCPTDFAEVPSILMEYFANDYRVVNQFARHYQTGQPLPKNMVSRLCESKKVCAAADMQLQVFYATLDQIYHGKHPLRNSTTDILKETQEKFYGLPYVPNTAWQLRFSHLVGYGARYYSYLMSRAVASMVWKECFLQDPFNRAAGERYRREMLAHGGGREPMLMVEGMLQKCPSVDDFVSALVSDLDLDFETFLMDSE
UniProt O75874, whole entry R132H: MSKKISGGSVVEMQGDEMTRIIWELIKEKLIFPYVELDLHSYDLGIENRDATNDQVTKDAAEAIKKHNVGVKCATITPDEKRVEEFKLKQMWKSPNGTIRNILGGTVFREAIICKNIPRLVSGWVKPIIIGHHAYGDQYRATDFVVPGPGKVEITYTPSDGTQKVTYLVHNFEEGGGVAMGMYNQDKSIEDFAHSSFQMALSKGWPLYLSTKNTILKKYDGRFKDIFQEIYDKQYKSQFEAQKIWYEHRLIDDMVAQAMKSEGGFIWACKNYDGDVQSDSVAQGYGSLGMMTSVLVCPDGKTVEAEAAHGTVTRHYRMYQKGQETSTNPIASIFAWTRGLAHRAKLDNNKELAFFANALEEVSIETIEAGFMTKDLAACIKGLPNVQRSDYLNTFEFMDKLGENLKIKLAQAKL
UniProt P31421, 19-872 limits assumed: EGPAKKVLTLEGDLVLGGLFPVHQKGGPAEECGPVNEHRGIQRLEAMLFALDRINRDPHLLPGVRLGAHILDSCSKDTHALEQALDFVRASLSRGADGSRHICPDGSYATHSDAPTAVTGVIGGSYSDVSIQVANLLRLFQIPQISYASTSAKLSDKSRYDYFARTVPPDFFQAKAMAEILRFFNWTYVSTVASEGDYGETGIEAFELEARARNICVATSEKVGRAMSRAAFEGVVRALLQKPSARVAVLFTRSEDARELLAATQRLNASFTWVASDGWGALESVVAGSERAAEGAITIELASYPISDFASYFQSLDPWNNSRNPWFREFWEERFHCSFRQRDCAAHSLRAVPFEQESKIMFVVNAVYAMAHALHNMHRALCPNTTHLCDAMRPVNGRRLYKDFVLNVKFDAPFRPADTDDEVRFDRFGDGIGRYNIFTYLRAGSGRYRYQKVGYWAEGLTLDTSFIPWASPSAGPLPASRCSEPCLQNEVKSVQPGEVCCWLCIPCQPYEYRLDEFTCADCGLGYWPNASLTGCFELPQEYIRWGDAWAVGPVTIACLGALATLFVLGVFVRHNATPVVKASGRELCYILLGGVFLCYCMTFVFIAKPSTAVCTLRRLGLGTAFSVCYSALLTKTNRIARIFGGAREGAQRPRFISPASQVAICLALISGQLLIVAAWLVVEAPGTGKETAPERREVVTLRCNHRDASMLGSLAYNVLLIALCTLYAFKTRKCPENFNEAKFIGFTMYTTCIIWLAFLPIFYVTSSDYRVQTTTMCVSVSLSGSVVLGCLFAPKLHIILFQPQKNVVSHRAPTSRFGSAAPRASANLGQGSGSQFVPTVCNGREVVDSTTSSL
UniProt O60502, whole entry: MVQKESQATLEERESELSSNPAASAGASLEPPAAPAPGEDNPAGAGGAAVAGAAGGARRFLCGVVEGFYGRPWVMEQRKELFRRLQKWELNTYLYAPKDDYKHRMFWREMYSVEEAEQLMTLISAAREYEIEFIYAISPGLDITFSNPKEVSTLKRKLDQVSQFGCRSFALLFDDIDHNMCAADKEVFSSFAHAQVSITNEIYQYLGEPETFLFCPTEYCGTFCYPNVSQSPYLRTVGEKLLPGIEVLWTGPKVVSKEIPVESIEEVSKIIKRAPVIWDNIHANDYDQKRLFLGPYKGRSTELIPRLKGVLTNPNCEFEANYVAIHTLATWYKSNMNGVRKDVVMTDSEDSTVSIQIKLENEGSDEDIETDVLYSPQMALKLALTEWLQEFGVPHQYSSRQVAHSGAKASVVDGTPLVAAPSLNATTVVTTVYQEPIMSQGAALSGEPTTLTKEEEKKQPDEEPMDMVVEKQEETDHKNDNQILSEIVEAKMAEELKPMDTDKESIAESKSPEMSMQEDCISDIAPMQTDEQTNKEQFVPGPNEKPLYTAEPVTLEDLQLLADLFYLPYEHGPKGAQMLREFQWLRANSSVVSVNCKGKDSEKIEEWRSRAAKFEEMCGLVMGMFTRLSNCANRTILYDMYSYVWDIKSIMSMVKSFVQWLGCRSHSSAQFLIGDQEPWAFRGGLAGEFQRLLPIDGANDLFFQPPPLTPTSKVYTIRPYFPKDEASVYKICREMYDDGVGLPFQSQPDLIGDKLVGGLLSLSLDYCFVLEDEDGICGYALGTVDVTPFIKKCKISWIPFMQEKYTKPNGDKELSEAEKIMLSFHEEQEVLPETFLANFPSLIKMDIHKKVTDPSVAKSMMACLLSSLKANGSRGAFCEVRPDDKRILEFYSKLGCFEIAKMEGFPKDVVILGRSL
UniProt P22455, 467-755 N535K limits assumed: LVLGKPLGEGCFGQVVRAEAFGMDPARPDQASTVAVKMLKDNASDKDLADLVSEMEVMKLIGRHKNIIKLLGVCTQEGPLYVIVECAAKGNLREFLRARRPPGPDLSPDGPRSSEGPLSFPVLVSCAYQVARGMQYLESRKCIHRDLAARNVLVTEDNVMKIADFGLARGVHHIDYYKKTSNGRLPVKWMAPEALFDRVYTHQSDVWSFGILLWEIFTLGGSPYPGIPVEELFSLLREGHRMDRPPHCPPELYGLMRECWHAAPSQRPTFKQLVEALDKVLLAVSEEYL
UniProt Q9NTG7, whole entry: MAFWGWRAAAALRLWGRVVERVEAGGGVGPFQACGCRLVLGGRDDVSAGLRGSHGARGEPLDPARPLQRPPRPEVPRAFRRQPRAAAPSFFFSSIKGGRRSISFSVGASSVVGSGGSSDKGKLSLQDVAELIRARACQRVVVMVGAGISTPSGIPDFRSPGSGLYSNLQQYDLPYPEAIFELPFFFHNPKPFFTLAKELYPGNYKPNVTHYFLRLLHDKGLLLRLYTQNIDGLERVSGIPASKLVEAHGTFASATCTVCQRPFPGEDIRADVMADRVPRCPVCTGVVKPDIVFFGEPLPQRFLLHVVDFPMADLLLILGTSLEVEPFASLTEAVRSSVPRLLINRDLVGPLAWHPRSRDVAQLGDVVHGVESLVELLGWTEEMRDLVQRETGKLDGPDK

Cc1cc(NC(=O)c2cccc(NC(=O)C3=CC(C)(C)CC3=O)c2)ccc1Nc1nccc(-c2cccnc2)n1 — remaining activity (MAPK8 (Homo sapiens, UniProt P45983); kinase activity, inhibitor; 1.646 µM, unit not given, together with: 10 mM GSH; baseline: DMSO): 0.23
CSc1ccccc1Nc1c(C(=O)O)ccnc1C(=O)O — remaining activity (fdhA (Pseudomonas putida, UniProt P46154); inhibitor, spectrophotometric; 200 µM, counterscreen): 80%
COc1ccc(-c2nc(Nc3nc4ccccc4o3)ncc2C#N)cc1F — maximal response (Grm5 (Rattus norvegicus, UniProt P31424); calcium mobilization, negative allosteric modulator; together with: glutamate EC80; baseline: glutamate maximum): 2.9 ± 0.6%
O=C(CCl)N1CCN(c2cc(N3CCCC3)nc(N3CCCC3)n2)CC1 — recovered enzyme activity (Caspase-1 (CASP1, Homo sapiens, UniProt P29466); DTT reversibility; concentration not given, together with: 10 mM DTT): 50 to 65%
Cc1ccc(C(=O)Nc2ccc(Br)cc2C(=O)O)cc1S(=O)(=O)Nc1ccc(Cl)c(Cl)c1 — ligand efficiency (RPA1 N-terminal domain; binding, fluorescence polarisation competition; together with: FITC-ATRIP probe): 0.22
CC(C)(C)Nc1c(-c2ccc3c(c2)C(=O)N(C2CCC(=O)NC2=O)C3)nc2ccccn12 (stereo not drawn) — Dmax (WEE1/CRBN (Homo sapiens, UniProt P30291+Q96SW2); degrader, HiBiT; Jurkat; 5 h): < 5%
O=C(CCl)Nc1ccc2c(Nc3ccccc3)ncnc2c1 — protein mass increase (EPHB3 (Homo sapiens, UniProt P54753); ESI-MS; covalent adduct): 275 Da
Fc1ccc(-c2noc3ncnc(Nc4ccc5c(c4)OCO5)c23)cc1 — iodide influx rate (CFTR (Homo sapiens, UniProt P13569, del508-508); FRT expressing ΔF508-CFTR; baseline: DMSO): 90 µM/s
CC(C)C[C@H](NC(=O)[C@H](CCC(N)=O)NC(=O)[C@@H](NC(=O)[C@H](CCCCN)NC(=O)[C@H](CC(N)=O)NC(=O)[C@H](CCC(N)=O)NC(=O)[C@H](CC(C)C)NC(=O)[C@@H]1CCCN1C(=O)[C@H](CCC(N)=O)NC(=O)CNC(=O)[C@H](CO)NC(=O)[C@H](CCCNC(=N)N)NC(=O)[C@H](Cc1ccccc1)NC(=O)c1ccccc1N)C(C)C)C(=O)N[C@@H](CCC(N)=O)C(=O)NCCNc1ccc([N+](=O)[O-])cc1[N+](=O)[O-] — kcat/Km (Mitochondrial intermediate peptidase (MIPEP, Homo sapiens, UniProt Q99797); substrate, FRET peptide hydrolysis): 130000 M⁻¹ s⁻¹
Cc1[nH]c2cc(Cl)cc(Cl)c2c1CCn1cc(CCN)nn1 — Emax (GLP1R (Homo sapiens, UniProt P43220); cAMP accumulation, positive allosteric modulator, HTRF; 0.6 µM, crude reaction product, together with: GLP-1(9-36) at EC20; baseline: BETP): 101%
Nc1nc(SCc2ccc(Cl)cc2)nn1S(=O)(=O)c1cccc([N+](=O)[O-])c1 — activation (Lysophospholipase-like protein 1; activator, gel-based ABPP, FP-rhodamine; HEK293 overexpressing Lysophospholipase-like protein 1; 10 µM): 128%
O=C(O)c1ccc(NC(=O)C(NS(=O)(=O)c2cccs2)c2ccccc2)cc1Cl (stereo not drawn) — Emax (Uracil nucleotide/cysteinyl leukotriene receptor, long isoform (GPR17, Homo sapiens, UniProt Q13304); calcium mobilization, antagonist; 1321N1 stably expressing GPR17; fitted at highest concentration; higher = stronger inhibition): 109 ± 4.46%
COc1ccc2[nH]cc(/C=C/c3cccc(O)c3)c2c1 — inhibition (APP Aβ1-40; Aβ40 aggregation, thioflavin T fluorescence; 25 µM): 23%
C[C@H](Nc1nc(N[C@@H](C)C2CC2)nc(-c2cccc(C(F)(F)F)n2)n1)C1CC1 — maximal inhibition (IDH1 (Homo sapiens, UniProt O75874, R132H); enzyme activity, inhibitor; mutant heterodimer reverse reaction): 110%
Nc1nc(SCc2ccc(Cl)cc2)nn1S(=O)(=O)c1ccc2[nH]cnc2c1 — probe labelling (Lysophospholipase-like protein 1; activator, gel-based ABPP FP-rhodamine; baseline: DMSO): 2.7 fold
Cc1ccc(C(=O)Nc2ccc(C(C)C)cc2C(=O)O)cc1S(=O)(=O)Nc1ccc(Cl)c(Cl)c1 — ligand efficiency (RPA1 N-terminal domain; binding, fluorescence polarisation competition; together with: FITC-ATRIP probe): 0.23
CCOC(=O)/C=C/CNCCCN1c2ccccc2CCc2ccccc21 — ubiquitination TR-FRET signal AUC (E3 ubiquitin-protein ligase NEDD4; inhibitor, Ub-TR-FRET; 11.11 µM, 1 h preincubation, HECT domain, together with: ATP 2 mM; higher = more ubiquitination): 78500 a.u. and 83500 a.u. and 78900 a.u.
Cc1ncc(CN(C)c2ccc3c(c2)c(=O)c(C(N)=O)cn3-c2ccc(F)cc2)cn1 — response (Grm2 (Rattus norvegicus, UniProt P31421); calcium mobilization, negative allosteric modulator; 30 µM, together with: glutamate 100 µM; baseline: glutamate maximum): 1.86 ± 0.26%
O=C(OC(C(F)(F)F)C(F)(F)F)N1CCc2c(Br)cccc2C1 — activity (FAAH (Homo sapiens, UniProt O00519); enzyme activity, inhibitor, fluorescence AAMCA substrate; 1 µM): inactive
CCOC(=O)/C=C/CNCCCN1c2ccccc2CCc2ccc(Br)cc21 — ubiquitination TR-FRET signal AUC (E3 ubiquitin-protein ligase NEDD4; inhibitor, Ub-TR-FRET; 33.33 µM, 1 h preincubation, HECT domain, together with: ATP 2 mM; higher = more ubiquitination): 45100 a.u. and 39800 a.u.
CC(=O)Nc1ncc(CN2CC[C@H](Oc3cccc(F)n3)C[C@@H]2C)s1 [isotope labelled] — binding (Protein O-GlcNAcase (OGA, Homo sapiens, UniProt O60502); autoradiography; human cortex sections; 5 nM, radiolabelled compound): 4.1 nCi/mg
CCOC(=O)/C=C/CNCCCN1c2ccccc2CCc2ccc([N+](=O)[O-])cc21 — ubiquitination TR-FRET signal AUC (E3 ubiquitin-protein ligase NEDD4; inhibitor, Ub-TR-FRET; 33.33 µM, 1 h preincubation, HECT domain, together with: ATP 2 mM; higher = more ubiquitination): 29600 a.u. and 29100 a.u. and 41600 a.u.
Cc1ccc(NC(=O)c2ccc(CN3CCC(N(C)C)C3)c(C(F)(F)F)c2)cc1N1Cc2cnc(Nc3cnn(C)c3)nc2N(C)C1=O (stereo not drawn) — GI50 (FGFR4/Transcription factor ETV6 (Homo sapiens, UniProt P22455+P41212, N535K); cell proliferation; Ba/F3 TEL-FGFR4 N535K; 72 h): 96 nM
CC(C)(C)OC(=O)CCC(C(=O)/C=C/c1ccc(O)c(OC(F)(F)F)c1)C(=O)/C=C/c1ccc(O)c(OC(F)(F)F)c1 — Aβ band density (APP (Homo sapiens, UniProt P05067); SDS-PAGE western blot, refers to: Aβ1-42 species 75-200 kDa; 30 µM, 24 h, 37 °C, together with: Aβ 10 µM; baseline: DMSO control): 1750 ± 927%
COC(=O)/C(=C/c1c[nH]c2ccc(C#N)cc12)c1ccc(NS(C)(=O)=O)cc1 — inhibition (APP Aβ1-40; Aβ40 aggregation, thioflavin T fluorescence; 25 µM): 0%
COC(=O)C1(C)C=C(C(=O)Nc2cccc(C(=O)Nc3ccc(Nc4nccc(-c5cccnc5)n4)c(C)c3)c2)C(=O)C1 (stereo not drawn) — koff (MAPK8 (Homo sapiens, UniProt P45983, C116S); surface plasmon resonance; 100, 300, 1000 nM, 1:1 binding model): 0.0353 s⁻¹
CN(C)C(=O)Cn1cc(-c2ccc(-c3cncc4ccncc34)cc2)cn1 — inhibition (CDK2 (Homo sapiens, UniProt P24941); enzyme activity, SelectScreen; concentration not given): no inhibition
O=C(O)c1cc(C(=O)N[C@@H](CS)C(=O)O)cc([C@H]2CCN[C@@H]2C(=O)O)c1 — specific binding (Glutamate receptor ionotropic, kainate 1 (Rattus norvegicus, UniProt P22756); radioligand binding; Sf9 membranes; 10 µM, homomeric receptor, together with: [3H]SYM2081): 80 ± 2%
COc1ccc(NS(=O)(=O)c2cc(C(=O)Nc3ccccc3C(=O)O)ccc2C)cc1 — ligand efficiency (RPA1 N-terminal domain; binding, fluorescence polarisation competition; together with: FITC-ATRIP probe): 0.16
O=C(N[C@@H]1CCc2ccccc21)C1CCN(S(=O)(=O)c2ccc3[nH]ncc3c2)CC1 — potentiation (CHRM5 (Homo sapiens, UniProt P08912); positive allosteric modulator, calcium mobilization; CHO cells expressing human M5; together with: acetylcholine EC20): inactive
CCOC(=O)/C=C/CNCCCCN1c2ccccc2CCc2ccc(Cl)cc21 — ubiquitination TR-FRET signal AUC (E3 ubiquitin-protein ligase NEDD4; inhibitor, Ub-TR-FRET; 0.4115 µM, 1 h preincubation, HECT domain, together with: ATP 2 mM; higher = more ubiquitination): 59400 a.u. and 61700 a.u. and 58600 a.u. and 61800 a.u. and 62800 a.u. and 59700 a.u.
COc1ccc(CNc2c(C(=O)O)ccnc2C(=O)O)cc1 — remaining activity (Egl nine homolog 1 (EGLN1, Homo sapiens, UniProt Q9GZT9); inhibitor, HTRF; 400 µM): 71%
COC(=O)[C@@]1(C)C=C(C(=O)Nc2cccc(C(=O)NC34CC(Nc5nccc(-c6cccnc6)n5)(C3)C4)c2)C(=O)CC1 — remaining activity (MAPK9 (Homo sapiens, UniProt P45984); enzyme activity, inhibitor; 0.006774 µM): 0.848 fraction of control
CC(=O)N[C@@H](CCC(N)=O)C(=O)N[C@H](C(=O)N[C@@H](C)C(=O)N[C@@H](CCCNC(=N)N)C(=O)N[C@@H](CCCCNC(=O)CCc1ccc(N=Nc2ccc(N(C)C)cc2)cc1)C(=O)N[C@@H](CO)C(=O)N[C@H](C(=O)NCC(=O)NCC(=O)NCCCNC(=S)Nc1ccc2c(c1)C(=O)OC21c2ccc(O)cc2Oc2cc(O)ccc21)[C@@H](C)O)[C@@H](C)O — kcat/Km (SIRT3 (Homo sapiens, UniProt Q9NTG7); substrate, fluorescence kinetics; 60 nM enzyme): 250 M⁻¹ s⁻¹
OC1CCN(c2ncc(-c3cc4ccc(F)cc4[nH]3)cn2)CC1 [isotope labelled] — Bmax (Alpha-synuclein, aggregated (SNCA, Homo sapiens, UniProt P37840); binding; Parkinson's disease brain homogenate): 140 ± 50 nM
COc1ccc(S(=O)(=O)n2nc(SCc3ccc(Cl)cc3)nc2N)cn1 — activation (Lysophospholipase-like protein 1; activator, gel-based ABPP, FP-rhodamine; HEK293 overexpressing Lysophospholipase-like protein 1; 10 µM): 32%
